Experimental data gathered from unrelated publications.
Every numbered part comes from another study and shows a few of its results, in no order.

Study 1 — method: protein-binding microarray; form: double-stranded DNA, one strand shown; sample: in vitro; tested at: 2540 nM top; notes: 60-bp whole probe; together with: salmon DNA 0.4 mg/ml; reference: random background probes; reading: higher = stronger binding; quantity: fitted relative affinity; constant ends, left off below: GCCTAGCAC … GTCTTGATTCGCTTGACGCTGCTG
Target: Interferon regulatory factor 3, full length, phosphomimetic (IRF3, Homo sapiens, UniProt Q14653, residues 1-427, S386D/S396D/S398D/S402D/T404D/S405D)
Residues (chain): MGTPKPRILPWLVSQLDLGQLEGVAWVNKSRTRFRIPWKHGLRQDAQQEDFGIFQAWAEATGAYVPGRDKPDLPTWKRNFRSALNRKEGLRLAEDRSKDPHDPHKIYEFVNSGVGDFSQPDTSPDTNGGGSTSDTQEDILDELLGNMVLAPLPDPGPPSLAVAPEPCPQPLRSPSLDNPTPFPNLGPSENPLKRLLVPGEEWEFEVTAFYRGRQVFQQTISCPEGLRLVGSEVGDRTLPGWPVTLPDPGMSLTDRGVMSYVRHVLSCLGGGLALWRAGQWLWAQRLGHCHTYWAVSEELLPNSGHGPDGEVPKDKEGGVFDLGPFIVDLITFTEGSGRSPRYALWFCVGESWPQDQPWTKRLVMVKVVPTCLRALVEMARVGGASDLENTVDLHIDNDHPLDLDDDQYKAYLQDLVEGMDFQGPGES
CATCGTAAGCAAAAATGATTGTGCTAG: -0.00449 z-score
CTCCCTTTCAGTTTTCCTATGTGCTAG: 3.59 z-score
TTAAGTTTCGACACTGGGTTAGTGCTA: 2.84 z-score
GACGGACTGGAAACTGGGGACGTGCTA: 0.291 z-score
TTGGGTTTCGACTTTCGGTTAGTGCTA: 2.94 z-score

Study 2 — method: RNA Bind-n-Seq; form: RNA; sample: in vitro; tested at: 200 nM; notes: whole 134-nt RNA, ends assumed; together with: 150 mM KCl; reference: input library; reading: higher = stronger binding; quantity: log2 enrichment
Target: Fragile X messenger ribonucleoprotein 1, C-terminal low-complexity region (Fmr1, Mus musculus, UniProt P35922)
Constant ends, left off below: GGGAGUUCUACAGUCCGACGAUC … UGGAAUUCUCGGGUGUCAAGG
CACAGACAACACGCACCCACACAGACACAGAGGGAAGGGGUUGGGAUGGGGACAGGGUGCACAGCUGGGCGGGGUAGGACCCCAGCCCCU: 1.34
CAGUUUAAGAGGGGUUUCAUGCAAGGGCAUGUAAAUAGACAAGAAAAAGAAGAAAAAGAAGCAAUAUAUAAAGAACGUUGGCCAGAUUAU: -0.0265
UCAAGUCCUGUGCUACACAUCGUAUGUACCGAAUCGGUUUUUGGUGGUUUUUGGAAAGUAUUAUGUUACGCCGUUCGGAUCUGCACUUCC: -0.454
CCUCAAGUCCUGUGCUACACAUCGUAUGUACCGAAUCGGGGCGGGGCGGCGGAAAGUAUUAUGUUACGCCGUUCGGAUCUGCACUUCCAG: -0.029
UGGGAGGUGGAUUUUGUUUAUUUUUUUAGCUCAUUUCCAGGGGUGGGAAUUUUUUUCUAAUAUGUGUCAUGAAUAAAGUUGUUUUUGAAA: 0.332
CCUCAAGUCCUGUGCUACACAUCGUAUGUACCGAAUCGGAAAGGUUUGGAGGAAAGUAUUAUGUUACGCCGUUCGGAUCUGCACUUCCAG: 0.0798
ACCAUGCAGGUGGGCAUCUUUGGGAAGUGGGGCAAGGGGGGGAUAGGGAGGGGGGUAACACUUUGGGAACAGAUGGUCCCAGGUCGUUUC: 0.682
UUGAAAGAAUUUGCCAACUUUGACUUUGAUGUCUGGAGGAAAAAGUAUAUGCGUUGGAUGAAUCACAAAAAGUCUCGAGUGAUGGAUUUC: -1.73

Study 3 — method: protein binding microarray; form: double-stranded DNA, one strand shown; sample: in vitro; tested at: not given; reference: not given; reading: higher = stronger binding; quantity: E-score
Target: Histone acetyltransferase KAT6A, winged helix 1, GST fusion (KAT6A, Homo sapiens, UniProt Q92794, residues 1-85)
Notes: 8-mer, flanks averaged, mean of 2 arrays, mostly near background
Residues (chain): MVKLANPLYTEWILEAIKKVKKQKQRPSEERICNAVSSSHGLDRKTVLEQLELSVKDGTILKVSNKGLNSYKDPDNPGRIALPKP
ACGGGTAC: 0.316
CGCTCGTC: 0.186
ATCCTTTC: -0.104
CAGCGAAG: 0.0773
CCCGGAAC: 0.118

Other studies, line by line
PhoQ, residues 284 288 289 292 302 303 ASASEQ  fold induction (PhoP, residues 12 14 15 18 19 NYFRM (Escherichia coli, UniProt P23836); Sort-seq, item: YFP reporter; E. coli; PhoQ-PhoP variant library, together with: 10 µM Mg2+; reference: high Mg2+ state, higher = stronger signaling): 0.842

For quick reference, copied from above (study 3):
ACGGGTAC: 0.316
ATCCTTTC: -0.104
CAGCGAAG: 0.0773
